Experimental data collected from several papers.
Each numbered part is a random draw from the data of one study; scales do not carry over between parts. ± marks the error that the study gave.

Sample 1
Organism: SARS-CoV-2 Wuhan spike VSV pseudovirus
Effect on: pseudovirus entry
Concentration: 10 µM
Quantity: inhibition
Compound = CC(=O)Nc1cccc(C(=O)N2CCOC(Cc3ccc(F)cc3)C2)c1 (stereo not drawn); result = 74%
Compound = CC(C)N(Cc1nccn1C)C(=O)C1CCCCO1 (stereo not drawn); result = 99%
Compound = CN1CCN(Cc2c(O)ccc3cc(-c4nc5ccccc5[nH]4)c(=O)oc23)CC1; result = 94%
Compound = CC(C)Oc1ccc(C(=O)Nc2nc3c(s2)CN(Cc2ccccc2)CC3)cc1; result = 60%
Compound = CCC(CC)C(=O)NCC(c1ccc(OC)cc1)N1CCCC1 (stereo not drawn); result = 65%
Compound = O=C(c1ccncc1F)N1CC(F)(F)C[C@H]1c1nc(C2CC2)no1; result = 73%
Compound = O=C(NCC1C[C@H]2C=C[C@H]1C21CC1)c1coc(CN2CCN(Cc3ccccc3)CC2)n1 (stereo partly drawn); result = 83%
Compound = CCN(CC)CCNC(=O)c1c(C)oc2c1C(=O)c1ccccc1C2=O; result = 100%
Compound = CC(C)c1cc(C(=O)N2Cc3ccc(CN4CCN(C)CC4)cc3C2)c(O)cc1O; result = 75%
Compound = Cc1cc2oc(=O)cc(C)c2cc1NC(=O)COCC(F)(F)C(F)F; result = 99%
Compound = CC(C)(C)NC(=O)NC(=O)Cn1ncc(Cl)c(Cl)c1=O; result = 69%
Compound = CNC(=O)CC1C(=O)NCCN1Cc1c(C)cc(C)cc1-n1cccn1 (stereo not drawn); result = 99%
Compound = CCS(=O)(=O)N1C[C@@H](COC)[C@H](c2ccncc2)C1; result = 78%
Compound = CN1CCN(Cc2c(O)ccc3cc(-c4ccc(F)cc4)c(=O)oc23)CC1; result = 98%
Compound = Cc1ccc2oc(C(=O)NCC3COc4ccccc4O3)c(C)c2c1 (stereo not drawn); result = 61%

Single results of other studies
rep nsp14: Replicase polyprotein 1ab, nsp14 (rep, Severe acute respiratory syndrome coronavirus 2, UniProt P0DTD1)
rep nsp12 RdRp: Replicase polyprotein 1ab, nsp12 RdRp (rep, Severe acute respiratory syndrome coronavirus 2, UniProt P0DTD1)
rep papain-like protease: Replicase polyprotein 1ab, papain-like protease (rep, Severe acute respiratory syndrome coronavirus 2, UniProt P0DTD1)
Molecule = CCC(CC)COC(=O)[C@H](C)N[P@](=O)(OC[C@H]1O[C@@](C#N)(c2ccc3c(N)ncnn23)[C@H](O)[C@@H]1O)Oc1ccccc1; target or system = SARS-CoV-2; assay = viral replication; test system = Calu-3, Beta; quantity = EC50; result = 0.09 ± 0.02 µM
Molecule = CC(N)C12CC3CC(CC1C3)C2 (stereo not drawn); target or system = Matrix protein 2 (Influenza A virus, UniProt P0DOF5, V27A); setting = concentration not given, pH 5.5, cell-based; quantity = inhibition; result = 0%
Molecule = O=C(NC1CCN(c2ncnc3[nH]cnc23)CC1)c1cccc(S(=O)(=O)N2CCCCC2)c1; target or system = rep nsp14; assay = NSP14 enzyme activity, inhibitor; setting = 0.7812 µM; quantity = inhibition; result = 11.8%
Molecule = SLHAVTAAQSTIEEQAKTFLDKFN; target or system = SARS-CoV-2 spike RBD; assay = peptide spot array; test system = peptide; setting = concentration not given; scale = relative to: wild-type ACE2 peptide; quantity = relative binding; result = 3.07
Molecule = COc1nc(N)nc2c1ncn2[C@@H]1O[C@H](CO)[C@@H](O)[C@@H]1O; target or system = SARS-CoV-2; assay = cytopathic effect; test system = Vero C1008, Omicron BA.1; setting = 48 h; quantity = IC100; result = 4.12 ± 0.15 µM
Molecule = SLVAVTAAHSTIEEQAKTFLDKFN; target or system = SARS-CoV-2 spike RBD; assay = peptide spot array; test system = peptide; setting = concentration not given; scale = relative to: wild-type ACE2 peptide; quantity = relative binding; result = 3.1
Molecule = O=c1[nH]cnc2c([C@@H]3N[C@H](CO)[C@@H](O)[C@H]3O)c[nH]c12; target or system = SARS-CoV-2; assay = cytopathic effect; test system = Vero C1008, Omicron BA.1; setting = 48 h; quantity = IC100; result = 1.58 µM
Molecule = CC(=N)NC12C3CCC4C3C3C(CCC31)C42.Cl; target or system = Matrix protein 2 (Influenza A virus, UniProt P0DOF5, S31N); setting = concentration not given, pH 5.5, cell-based; quantity = inhibition; result = 0%
Molecule = CCC(CC)[C@H](NC(C)=O)[C@@H]1[C@H](O)[C@@H](C(=O)O)C[C@H]1N=C(N)N; target or system = neuraminidase (Influenza B virus, UniProt A0A1S5RAG6, G407S); quantity = IC50; result = 0.0007 ± 0.0002 µM
Molecule = O=C(NC1CCN(c2ncnc3[nH]cnc23)CC1)c1cccc(S(=O)(=O)N2CCCC2)c1; target or system = rep nsp14; assay = enzyme activity; test system = SARS-CoV-2; quantity = Hill slope; result = 2.22
Molecule = O=C(NCc1ccc(S(=O)(=O)c2cc(F)cc(F)c2)cc1)c1ccc2nccn2c1; target or system = rep nsp12 RdRp; assay = binding, biolayer interferometry; setting = concentration not given; quantity = BLI response; result = 0 nm
Molecule = CNC(=O)[C@H](Cc1ccccc1)NC(=O)[C@H](CC(C)C)[C@H](CSc1cccs1)C(=O)NO; target or system = rep papain-like protease; setting = concentration not given, C111S mutant; scale = relative to: positive control; quantity = activity; result = 16.5%
Molecule = N#C[C@@]1(n2ccc(N)nc2=O)O[C@H](CO)[C@@H](O)[C@H]1O; target or system = SARS-CoV-2; test system = Calu-3, Delta; quantity = EC50; result = 0.3 ± 0.04 µM
Molecule = O=c1cc(O)c2ccccc2o1; target or system = rep papain-like protease; setting = concentration not given, C111S mutant; scale = relative to: positive control; quantity = activity; result = 19%
Molecule = C[C@@H]1O[C@@H](OC[C@H]2O[C@@H](Oc3cc(O)c4c(c3)O[C@H](c3ccc(O)cc3)CC4=O)[C@H](O)[C@@H](O)[C@@H]2O)[C@H](O)[C@H](O)[C@H]1O; target or system = rep nsp12 RdRp; assay = binding, biolayer interferometry; setting = 50 µM; quantity = BLI response; result = 0.06 nm

A few entries again (single results of other studies):
Molecule = COc1nc(N)nc2c1ncn2[C@@H]1O[C@H](CO)[C@@H](O)[C@@H]1O; target or system = SARS-CoV-2; assay = cytopathic effect; test system = Vero C1008, Omicron BA.1; setting = 48 h; quantity = IC100; result = 4.12 ± 0.15 µM
Molecule = SLVAVTAAHSTIEEQAKTFLDKFN; target or system = SARS-CoV-2 spike RBD; assay = peptide spot array; test system = peptide; setting = concentration not given; scale = relative to: wild-type ACE2 peptide; quantity = relative binding; result = 3.1
Molecule = O=c1[nH]cnc2c([C@@H]3N[C@H](CO)[C@@H](O)[C@H]3O)c[nH]c12; target or system = SARS-CoV-2; assay = cytopathic effect; test system = Vero C1008, Omicron BA.1; setting = 48 h; quantity = IC100; result = 1.58 µM
Molecule = CC(=N)NC12C3CCC4C3C3C(CCC31)C42.Cl; target or system = Matrix protein 2 (Influenza A virus, UniProt P0DOF5, S31N); setting = concentration not given, pH 5.5, cell-based; quantity = inhibition; result = 0%
